{"data": "Published values from different studies", "note": "Every numbered part comes from another study and shows a few of its results, in no order. Positions count from the first letter of the parent shown.", "UniProt Q86UX6, sequence (whole entry, looked up)": "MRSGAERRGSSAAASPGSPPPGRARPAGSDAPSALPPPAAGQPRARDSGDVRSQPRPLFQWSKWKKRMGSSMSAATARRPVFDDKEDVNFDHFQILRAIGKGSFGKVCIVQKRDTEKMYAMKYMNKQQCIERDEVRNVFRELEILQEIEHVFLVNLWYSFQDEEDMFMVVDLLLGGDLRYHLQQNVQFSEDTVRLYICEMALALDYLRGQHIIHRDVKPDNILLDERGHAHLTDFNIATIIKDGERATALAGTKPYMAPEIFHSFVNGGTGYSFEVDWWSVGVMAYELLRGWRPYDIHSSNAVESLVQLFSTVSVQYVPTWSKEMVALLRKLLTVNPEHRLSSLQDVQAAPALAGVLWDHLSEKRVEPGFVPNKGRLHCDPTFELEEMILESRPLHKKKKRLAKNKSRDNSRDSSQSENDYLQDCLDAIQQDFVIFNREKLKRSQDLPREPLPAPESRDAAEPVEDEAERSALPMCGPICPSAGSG", "UniProt Q99759, sequence (whole entry, looked up)": "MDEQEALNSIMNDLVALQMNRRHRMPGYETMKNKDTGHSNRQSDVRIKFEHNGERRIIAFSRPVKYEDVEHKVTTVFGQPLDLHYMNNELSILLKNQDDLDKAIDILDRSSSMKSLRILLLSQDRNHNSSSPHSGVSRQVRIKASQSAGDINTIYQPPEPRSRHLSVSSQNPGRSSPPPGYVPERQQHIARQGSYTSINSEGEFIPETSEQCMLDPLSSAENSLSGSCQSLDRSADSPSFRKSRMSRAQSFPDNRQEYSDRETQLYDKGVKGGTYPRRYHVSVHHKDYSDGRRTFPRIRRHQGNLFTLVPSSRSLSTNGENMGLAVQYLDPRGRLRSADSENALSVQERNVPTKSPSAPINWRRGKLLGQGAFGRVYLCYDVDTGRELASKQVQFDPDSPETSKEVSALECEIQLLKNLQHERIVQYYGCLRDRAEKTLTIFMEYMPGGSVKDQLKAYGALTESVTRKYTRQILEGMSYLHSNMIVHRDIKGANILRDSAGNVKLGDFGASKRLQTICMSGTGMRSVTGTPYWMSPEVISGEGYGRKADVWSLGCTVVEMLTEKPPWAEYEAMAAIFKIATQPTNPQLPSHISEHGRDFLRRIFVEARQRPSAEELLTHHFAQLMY", "UniProt O95382, sequence (whole entry, looked up)": "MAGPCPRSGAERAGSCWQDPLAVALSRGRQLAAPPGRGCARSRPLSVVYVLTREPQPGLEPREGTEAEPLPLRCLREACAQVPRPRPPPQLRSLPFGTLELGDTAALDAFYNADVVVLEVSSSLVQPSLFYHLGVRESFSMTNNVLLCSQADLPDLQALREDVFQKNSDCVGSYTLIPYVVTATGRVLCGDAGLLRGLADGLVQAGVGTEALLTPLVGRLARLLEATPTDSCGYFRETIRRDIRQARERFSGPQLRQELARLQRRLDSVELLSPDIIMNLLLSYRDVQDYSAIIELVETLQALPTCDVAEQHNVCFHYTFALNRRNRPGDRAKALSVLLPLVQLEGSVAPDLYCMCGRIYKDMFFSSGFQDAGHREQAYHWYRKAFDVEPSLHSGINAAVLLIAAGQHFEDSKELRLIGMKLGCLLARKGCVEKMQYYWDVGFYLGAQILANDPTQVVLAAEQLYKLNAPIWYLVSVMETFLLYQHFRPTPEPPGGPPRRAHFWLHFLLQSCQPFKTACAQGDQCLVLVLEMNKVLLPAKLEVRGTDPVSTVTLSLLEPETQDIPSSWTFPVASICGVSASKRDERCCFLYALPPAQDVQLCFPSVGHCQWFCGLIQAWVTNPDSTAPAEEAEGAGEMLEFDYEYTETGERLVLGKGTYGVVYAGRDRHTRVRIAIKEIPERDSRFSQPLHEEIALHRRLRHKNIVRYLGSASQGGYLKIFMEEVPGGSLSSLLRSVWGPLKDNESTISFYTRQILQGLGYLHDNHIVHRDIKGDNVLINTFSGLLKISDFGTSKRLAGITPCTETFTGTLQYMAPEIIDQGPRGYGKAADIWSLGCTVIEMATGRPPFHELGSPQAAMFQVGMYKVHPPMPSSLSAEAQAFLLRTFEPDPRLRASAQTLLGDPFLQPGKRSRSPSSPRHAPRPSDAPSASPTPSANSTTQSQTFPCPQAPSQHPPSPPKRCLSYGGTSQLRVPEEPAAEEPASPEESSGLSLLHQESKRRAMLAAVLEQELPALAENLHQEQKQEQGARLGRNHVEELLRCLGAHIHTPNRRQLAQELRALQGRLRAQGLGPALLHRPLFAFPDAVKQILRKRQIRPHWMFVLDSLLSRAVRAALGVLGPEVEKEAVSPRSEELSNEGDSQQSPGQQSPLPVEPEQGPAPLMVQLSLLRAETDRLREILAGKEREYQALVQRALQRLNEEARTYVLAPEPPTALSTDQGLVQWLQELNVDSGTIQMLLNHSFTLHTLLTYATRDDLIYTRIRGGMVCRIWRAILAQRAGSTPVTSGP", "UniProt P00519, sequence (whole entry, unmodified, looked up)": "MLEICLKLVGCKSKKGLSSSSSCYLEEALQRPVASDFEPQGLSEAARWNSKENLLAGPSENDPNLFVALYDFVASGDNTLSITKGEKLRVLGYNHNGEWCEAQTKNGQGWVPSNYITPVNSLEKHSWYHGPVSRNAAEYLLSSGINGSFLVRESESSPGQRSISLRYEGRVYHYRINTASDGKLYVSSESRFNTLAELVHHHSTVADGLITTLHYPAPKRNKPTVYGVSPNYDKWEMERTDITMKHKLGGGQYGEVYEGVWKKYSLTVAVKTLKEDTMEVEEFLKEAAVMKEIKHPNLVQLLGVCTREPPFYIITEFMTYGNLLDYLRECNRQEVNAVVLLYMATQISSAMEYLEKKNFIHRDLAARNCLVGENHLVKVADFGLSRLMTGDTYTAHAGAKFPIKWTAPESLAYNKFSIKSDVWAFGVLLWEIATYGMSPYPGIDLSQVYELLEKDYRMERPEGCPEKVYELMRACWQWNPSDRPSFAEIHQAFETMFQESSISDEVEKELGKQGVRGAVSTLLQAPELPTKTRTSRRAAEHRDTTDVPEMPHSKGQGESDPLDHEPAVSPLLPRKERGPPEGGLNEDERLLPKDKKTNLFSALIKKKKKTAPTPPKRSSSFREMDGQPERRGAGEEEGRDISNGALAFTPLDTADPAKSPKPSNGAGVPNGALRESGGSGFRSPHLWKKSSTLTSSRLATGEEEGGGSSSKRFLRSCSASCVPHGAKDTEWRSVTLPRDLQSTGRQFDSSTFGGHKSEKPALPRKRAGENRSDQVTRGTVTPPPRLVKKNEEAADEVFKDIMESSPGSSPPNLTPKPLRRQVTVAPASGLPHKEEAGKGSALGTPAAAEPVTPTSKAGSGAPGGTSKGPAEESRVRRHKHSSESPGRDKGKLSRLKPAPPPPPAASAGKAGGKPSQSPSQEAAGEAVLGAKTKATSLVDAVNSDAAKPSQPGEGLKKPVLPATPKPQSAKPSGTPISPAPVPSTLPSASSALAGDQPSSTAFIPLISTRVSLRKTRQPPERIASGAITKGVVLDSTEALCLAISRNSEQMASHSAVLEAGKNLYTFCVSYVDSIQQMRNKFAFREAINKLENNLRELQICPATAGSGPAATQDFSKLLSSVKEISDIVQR", "UniProt Q15759, sequence (whole entry, looked up)": "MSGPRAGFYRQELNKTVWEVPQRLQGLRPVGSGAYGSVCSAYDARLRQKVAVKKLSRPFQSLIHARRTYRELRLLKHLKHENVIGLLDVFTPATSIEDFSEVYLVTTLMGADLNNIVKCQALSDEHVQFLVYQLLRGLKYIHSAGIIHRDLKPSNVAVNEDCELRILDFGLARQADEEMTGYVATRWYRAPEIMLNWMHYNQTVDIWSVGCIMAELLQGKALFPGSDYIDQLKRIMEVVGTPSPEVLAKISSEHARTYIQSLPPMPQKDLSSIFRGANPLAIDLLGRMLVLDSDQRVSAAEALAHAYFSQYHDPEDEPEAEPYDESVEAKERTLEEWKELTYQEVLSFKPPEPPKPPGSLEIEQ", "UniProt P42681, sequence (whole entry, looked up)": "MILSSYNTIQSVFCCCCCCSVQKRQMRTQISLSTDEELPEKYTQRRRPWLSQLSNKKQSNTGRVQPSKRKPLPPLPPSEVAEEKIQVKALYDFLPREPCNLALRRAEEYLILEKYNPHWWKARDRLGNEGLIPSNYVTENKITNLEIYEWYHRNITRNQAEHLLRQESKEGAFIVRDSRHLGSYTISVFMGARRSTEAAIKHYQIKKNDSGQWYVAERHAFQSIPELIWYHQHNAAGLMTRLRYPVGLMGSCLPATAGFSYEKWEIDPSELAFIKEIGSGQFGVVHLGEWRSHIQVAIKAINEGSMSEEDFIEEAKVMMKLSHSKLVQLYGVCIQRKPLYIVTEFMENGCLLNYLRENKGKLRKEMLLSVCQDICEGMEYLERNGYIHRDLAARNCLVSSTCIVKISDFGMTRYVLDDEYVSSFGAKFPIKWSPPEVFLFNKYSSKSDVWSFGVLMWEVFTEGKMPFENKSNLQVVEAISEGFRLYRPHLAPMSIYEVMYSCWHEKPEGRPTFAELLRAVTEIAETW"}
{"data": "Set 1", "Structure (SMILES)": "CCC(=N\\O)/C(C)=C/c1ccc(F)cc1", "technique": "competition with immobilised ligand", "tested at": "1 µM"}
{"target": "CDK13 (Homo sapiens, UniProt Q14004)", "read-out": "cell-free assay", "remaining binding [%]": 95}
{"target": "TXK (Homo sapiens, UniProt P42681)", "read-out": "binding", "remaining binding [%]": 81}
{"target": "STK16 (Homo sapiens, UniProt O75716)", "read-out": "cell-free assay", "remaining binding [%]": 97}
{"target": "PLK1 (Homo sapiens, UniProt P53350)", "read-out": "cell-free assay", "remaining binding [%]": 93}
{"target": "LIM domain kinase 2 (LIMK2, Homo sapiens, UniProt P53671)", "read-out": "cell-free assay", "remaining binding [%]": 80}
{"target": "MAP3K3 (Homo sapiens, UniProt Q99759)", "read-out": "cell-free assay", "remaining binding [%]": 86}
{"target": "Tyrosine-protein kinase ABL1, non-phosphorylated (ABL1, Homo sapiens, UniProt P00519, F317L)", "read-out": "cell-free assay", "remaining binding [%]": 81}
{"target": "ACVR1B (Homo sapiens, UniProt P36896)", "read-out": "cell-free assay", "remaining binding [%]": 77}
{"target": "BMPR1B (Homo sapiens, UniProt O00238)", "read-out": "cell-free assay", "remaining binding [%]": 87}
{"target": "STK32C (Homo sapiens, UniProt Q86UX6)", "read-out": "cell-free assay", "remaining binding [%]": 65}
{"target": "MAP3K6 (Homo sapiens, UniProt O95382)", "read-out": "cell-free assay", "remaining binding [%]": 63}
{"target": "MAP2K1 (Homo sapiens, UniProt Q02750)", "read-out": "cell-free assay", "remaining binding [%]": 95}
{"target": "SRPK1 (Homo sapiens, UniProt Q96SB4)", "read-out": "cell-free assay", "remaining binding [%]": 100}
{"target": "MYLK4 (Homo sapiens, UniProt Q86YV6)", "read-out": "cell-free assay", "remaining binding [%]": 94}
{"target": "DMPK (Homo sapiens, UniProt Q09013)", "read-out": "cell-free assay", "remaining binding [%]": 88}
{"target": "MAPK11 (Homo sapiens, UniProt Q15759)", "read-out": "cell-free assay", "remaining binding [%]": 82}
{"data": "Set 2", "Substitution": "D92R", "target": "ABI1, truncated, D143A, DHFR fusion (Arabidopsis thaliana)", "technique": "DHFR PCA, deep sequencing", "sample": "yeast", "notes": "methotrexate growth selection, single substitutions", "relative to": "wild-type fitted maximum", "reading": "higher = stronger binding", "starting sequence": "PYL1, truncated, DHFR fusion (Arabidopsis thaliana); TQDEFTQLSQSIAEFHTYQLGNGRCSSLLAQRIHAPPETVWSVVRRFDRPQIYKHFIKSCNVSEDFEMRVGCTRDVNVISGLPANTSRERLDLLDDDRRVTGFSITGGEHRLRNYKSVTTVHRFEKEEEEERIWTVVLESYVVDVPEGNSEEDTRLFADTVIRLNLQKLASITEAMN; partner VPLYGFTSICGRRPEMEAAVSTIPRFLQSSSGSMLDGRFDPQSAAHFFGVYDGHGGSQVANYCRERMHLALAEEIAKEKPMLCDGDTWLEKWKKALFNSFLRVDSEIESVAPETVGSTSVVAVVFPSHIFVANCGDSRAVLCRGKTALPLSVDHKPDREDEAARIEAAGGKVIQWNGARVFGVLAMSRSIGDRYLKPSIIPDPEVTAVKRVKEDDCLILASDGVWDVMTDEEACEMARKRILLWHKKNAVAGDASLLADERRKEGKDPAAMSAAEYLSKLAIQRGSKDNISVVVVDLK"}
{"with": "(+)-ABA 0.032 µM", "relative binding score": "0.234%"}
{"with": "(+)-ABA 2500 µM", "relative binding score": "82.8%"}
{"with": "(+)-ABA 0.39 µM", "relative binding score": "2.65%"}
{"with": "(+)-ABA 200 µM", "relative binding score": "49.9%"}
{"with": "(+)-ABA 4.8 µM", "relative binding score": "3.45%"}
{"with": "(+)-ABA 1.4 µM", "relative binding score": "0.245%"}
{"data": "Set 3", "target": "Beta-1 adrenergic receptor (ADRB1, Homo sapiens, UniProt P08588)", "mode": "antagonist", "UniProt P08588, sequence (whole entry, looked up)": "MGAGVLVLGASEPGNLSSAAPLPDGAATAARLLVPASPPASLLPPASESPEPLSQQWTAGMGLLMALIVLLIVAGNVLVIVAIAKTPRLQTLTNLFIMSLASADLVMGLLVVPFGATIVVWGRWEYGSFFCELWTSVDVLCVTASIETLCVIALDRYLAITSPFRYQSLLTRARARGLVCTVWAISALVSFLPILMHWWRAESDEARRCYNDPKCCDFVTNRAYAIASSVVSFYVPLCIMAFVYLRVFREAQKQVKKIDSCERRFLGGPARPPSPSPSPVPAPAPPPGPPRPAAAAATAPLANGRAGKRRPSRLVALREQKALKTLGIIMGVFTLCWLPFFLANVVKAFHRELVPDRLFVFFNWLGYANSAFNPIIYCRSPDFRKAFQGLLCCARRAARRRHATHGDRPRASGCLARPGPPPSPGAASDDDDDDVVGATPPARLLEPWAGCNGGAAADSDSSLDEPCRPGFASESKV"}
{"SMILES": "N#Cc1ccc(OCC(O)CN2CCN(c3ncnc4ccsc34)CC2)cc1 (stereo not drawn)", "IC50": "≥ 100 µM"}
{"SMILES": "C[C@@H](c1ccc2nccn2c1)n1nnc2ncc(-c3cnn(C)c3)nc21", "IC50": "≥ 100 µM"}
{"SMILES": "Cc1c(-c2ccnc(Nc3cc(Br)cc(C(F)(F)F)c3)n2)sc(=O)n1C", "IC50": "≥ 100 µM"}
{"SMILES": "Cc1cc(C(=O)N2CCc3c(nc(C)nc3N(C)C)C2)c2cccc(C)c2n1", "IC50": "≥ 100 µM"}
{"data": "Set 4", "target": "RING finger protein unkempt homolog, zinc fingers 1-6, GST-SBP tag (UNK, Homo sapiens, UniProt Q9C0B0, residues 30-357)", "technique": "RNA Bind-n-Seq", "form": "RNA", "sample": "in vitro", "tested at": "not given", "notes": "RNA with constant flanks, human-mouse chimeric sites, ends assumed", "relative to": "input RNA pool", "reading": "higher = stronger binding", "shared flanks, not repeated": "GGGAGUUCUACAGUCCGACGAUC … CAACAGAGGAUUGAGCAUCA", "Target sequence (chain)": "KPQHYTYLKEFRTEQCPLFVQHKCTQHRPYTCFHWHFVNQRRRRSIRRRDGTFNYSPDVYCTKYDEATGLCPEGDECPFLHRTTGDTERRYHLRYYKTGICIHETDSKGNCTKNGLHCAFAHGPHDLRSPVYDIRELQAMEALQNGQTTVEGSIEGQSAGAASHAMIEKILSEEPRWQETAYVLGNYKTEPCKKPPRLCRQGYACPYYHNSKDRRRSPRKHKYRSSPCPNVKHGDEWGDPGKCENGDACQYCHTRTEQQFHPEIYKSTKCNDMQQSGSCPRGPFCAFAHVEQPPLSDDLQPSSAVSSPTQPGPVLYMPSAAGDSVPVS"}
{"Oligonucleotide": "AGGAGGAGGUUAAAGGGUGAGAGUGGGGUGGAAGACUGUGUCAUGGCUCUGGAGACACUGUUCAGUGUCCUGCUUUCUCUUUGCAGACUGAUGGCCCCUUACACGCCCUUUCUGACUGAG", "bound/input enrichment": "0.0748 ratio"}
{"Oligonucleotide": "CAUGUAUCUGCAGUACUUGAUGUGGACUACUCUCCCACUGGGAAGGAAUUUGUGUCUGCCAGCUUUGAUAAGUCUAUUCGAAUCUUUCCUGUGGACAAGAGCCGAAGCAGGGAAGUGUAU", "bound/input enrichment": "0.369 ratio"}
{"Oligonucleotide": "CUUAAUGUUAAUAUUUUUGAAUAAAUGAAGCUAAAAUGUCUGCUUUUGGUACUACAUGCAUUAAUAAAAGGUUAAGUUUUGUUUUCCCUCCACUGAAUAUUUAACAUCUCAGAAAAAAAC", "bound/input enrichment": "0.601 ratio"}
{"Oligonucleotide": "CAGCCUCAGAGCCCAGACUUCCUGGAUAUCACCAACCCUAAAGCGGUAUUAGAAAAUGCAUUGAGAAACUUCGCCUGUCUGACGACUGGAGAUGUGAUUGCUAUCAACUAUAAUGAAAAG", "bound/input enrichment": "0.568 ratio"}
{"Oligonucleotide": "GGAAGCACAAUGAUGGAGAUUGAUGGUGAUAAAGGCAAGCAGGGCGGGCCCACCUACUACAUAGACACCAAUGCCCUCCGCGUGCCCAGGGAGAACAUGGAGGCCAUCUCACCACUCAAG", "bound/input enrichment": "0.236 ratio"}
{"Oligonucleotide": "AGAAAGCAAAACUUGGAACGAUUUAAGAAAGGAGACGUAAGAUUCUUGAUUUGCACAGAUGUAGCUGCUAGAGGGAUUGAUAUCCAUGGUGUUCCUUAUGUGAUCAACGUCACCCUGCCU", "bound/input enrichment": "0.278 ratio"}
{"Oligonucleotide": "AACAGAUUGUCUUUAAGCAUUCCAAGCGAGAAUGCUGGGGUGAUCAUAAUUACCCACGUGCCUUCUGUAAUAGAUGGAAUGCUGUUCCAUGUUACAUCUUUCCUUCACUCCAGAAUUGUU", "bound/input enrichment": "0.111 ratio"}
{"Oligonucleotide": "UCAUUUUUCUCUUUUCUGAUCGUCAGGUAGGAAAAGCCUAAAGAUUAGGUUGUAAGAAAAACAGAAGCCAUGUUUCGAAGACCUGUGUUACAGGUAUUUCGUCAGUUUGUAAGACAUGAG", "bound/input enrichment": "1.41 ratio"}
{"data": "Set 5", "host": "human", "sample": "microsomes or S9", "tested at": "2 µM", "time": "0.5 h"}
{"SMILES": "CC(=O)N1N=C(c2c(-c3ccccc3)c3cc(Br)ccc3[nH]c2=O)CC1c1ccco1 (stereo not drawn)", "remaining compound [%]": 36}
{"SMILES": "CC(C)S(=O)(=O)c1ccc(CC(=O)NCC(O)Cn2ccccc2=O)cc1 (stereo not drawn)", "remaining compound [%]": 0.195}
{"SMILES": "N#Cc1ccc2nc(-n3cncn3)c(-c3ccc(Cl)cc3Cl)c(C#N)c2c1", "remaining compound [%]": "> 100"}
{"data": "Single results of other studies"}
{"SMILES": "CNC(=O)c1cc(Oc2ccc(NC(=O)Nc3ccc(Cl)c(C(F)(F)F)c3)cc2)ccn1", "target or system": "mouse MPNST tumor cells", "assay": "high-content immunofluorescence imaging, measured: nuclear SOX9", "conditions": "10 µM, 12 h, mean of 2 replicates", "how to read": "relative to: DMSO control, higher = more nuclear SOX9", "measurement": "nuclear SOX9 intensity", "value": "115 % of DMSO"}
{"SMILES": "COc1ccc(-c2c(Nc3ccccn3)[nH]c3c(C4=CCCCC4)c(-c4ccccc4)nn3c2=O)cc1", "test system": "human patients, plasma", "conditions": "oral, 100 mg once daily, day 15, cycle 1, tau 24 h", "measurement": "AUC(0-tau) geometric mean", "value": "66300 ng·h/mL"}
{"note": "For quick reference, copied from above (set 4):"}
{"Oligonucleotide": "AGGAGGAGGUUAAAGGGUGAGAGUGGGGUGGAAGACUGUGUCAUGGCUCUGGAGACACUGUUCAGUGUCCUGCUUUCUCUUUGCAGACUGAUGGCCCCUUACACGCCCUUUCUGACUGAG", "bound/input enrichment": "0.0748 ratio"}
{"Oligonucleotide": "CAUGUAUCUGCAGUACUUGAUGUGGACUACUCUCCCACUGGGAAGGAAUUUGUGUCUGCCAGCUUUGAUAAGUCUAUUCGAAUCUUUCCUGUGGACAAGAGCCGAAGCAGGGAAGUGUAU", "bound/input enrichment": "0.369 ratio"}
{"Oligonucleotide": "CUUAAUGUUAAUAUUUUUGAAUAAAUGAAGCUAAAAUGUCUGCUUUUGGUACUACAUGCAUUAAUAAAAGGUUAAGUUUUGUUUUCCCUCCACUGAAUAUUUAACAUCUCAGAAAAAAAC", "bound/input enrichment": "0.601 ratio"}
